Measurements collected from several papers.
Several values in a cell are separate wells, animals, samples, runs or records. ± marks the error that the study gave. In brackets after ≈: the same amount, converted by molar mass.

Compound	tested on	assay	system	setting	scale	quantity	value
O=C(O)/C=C/C(=O)O.Oc1cccc2[nH]cc(CCNC3CCCCC3)c12			C57BL/6J mice	subcutaneous, 30 mg/kg, 30 min		distance travelled	1380 ± 352 cm
COc1c(CCC[P+](c2ccccc2)(c2ccccc2)c2ccccc2)cc2c(c1OC)OCO2.[I-]	U-251	SRB				GI50	-5.75 log M
CCCCCCCCCCCCCCCCCC[N+](C)(C)CCCCCCCCCCCC[N+](C)(C)CCCCCCCCCCCCCCCCCC.[Br-].[Br-]	influenza A virus A/PR/8/34 (H1N1)			concentration not given, co-treatment		protection	62.5 ± 3.1%
COc1cccc(C(=O)NN(C(=O)c2cc(C)cc(C)c2)C(C)(C)C)c1C	Anopheles gambiae s.l.		resistant	tarsal contact, dose not given, 24 h post blood meal, added: RME	relative to: control	lifespan	decreased
CC[C@H](C)[C@H](NC(=O)[C@H](C)NC(=O)[C@H](CCCCN)NC(=O)[C@H](CC(C)C)NC(=O)[C@H](C)NC(=O)[C@@H](NC(=O)[C@H](Cc1c[nH]cn1)NC(=O)[C@H](CC(C)C)NC(=O)[C@@H](NC(=O)[C@@H](NC(=O)[C@H](CCCCN)NC(=O)[C@H](C)NC(=O)[C@H](C)NC(=O)[C@H](CO)NC(=O)[C@H](CCCCN)NC(=O)[C@H](Cc1ccccc1)NC(=O)[C@@H](NC(=O)[C@H](CCCCN)NC(=O)[C@H](CC(C)C)NC(=O)[C@H](Cc1ccccc1)NC(=O)[C@H](CO)NC(=O)[C@H](CCCCN)NC(=O)[C@H](Cc1c[nH]c2ccccc12)NC(=O)[C@H](CCCCN)NC(C)=O)[C@@H](C)O)[C@@H](C)O)C(C)C)[C@@H](C)O)C(=O)N[C@@H](CO)C(=O)N[C@@H](CO)C(N)=O	Enterococcus faecalis		ATCC 29212			MBC50	32 µg/mL (≈ 10.9 µM)
CC(C)NCCc1c[nH]c2cccc(O)c12.O=C(O)/C=C/C(=O)O			C57BL/6J mice	subcutaneous, 3 mg/kg, 30 min		distance travelled	2140 ± 234 cm
CS(=O)(=O)Nc1ncn(-c2cc(F)c(COc3ccc(OS(=O)(=O)F)cc3)c(F)c2)n1	Mycobacterium tuberculosis		NIH_G13, drug-resistant, lineage 4			MIC	0.03 µM (≈ 0.0144 µg/mL)
CCCCNCCc1c[nH]c2cccc(O)c12.O=C(O)/C=C/C(=O)O			C57BL/6J mice	subcutaneous, 3 mg/kg, 30 min		distance travelled	2720 ± 314 cm
CC(C)N1CCC(NC2CCN(c3cccc(-c4cc5cc(F)ccc5[nH]4)c3)CC2)CC1	U-251					GI50	1530 nM
COc1cc(CCC[P+](c2ccccc2)(c2ccccc2)c2ccccc2)c(OC)c2c1OCO2.[I-]	NCI-H522	SRB				GI50	-5.84 log M
CC[C@H](C)[C@@H]1NC(=O)[C@@H]2CCCN2C(=O)[C@H](CC(C)C)NC(=O)[C@H](CC(C)C)NC(=O)CNC(=O)[C@@H](NC(=O)[C@@H](NC(=O)[C@H](CC(=O)O)NC(=O)CNC(=O)[C@@H](NC(=O)[C@H](C)NC(=O)CNC(=O)[C@H](CCCCN)NC(=O)[C@H](CC(C)C)NC(=O)[C@H](CC(C)C)NC(=O)[C@H](CCCCN)NC(=O)CNC(=O)[C@@H](NC(=O)[C@@H](N)CC(C)C)C(C)C)C(C)C)C(C)C)CSSC[C@@H](C(=O)O)NC1=O		RNA-seq, refers to: Crybg1	mouse, traumatic brain injury model, frontal cortex and hippocampus	dose not given	relative to: TBI alone	log2 fold change	-1.07
CCCCC1(CCCC)CN(c2ccccc2)c2cc(SC)c(OCC(=O)N[C@@H](C(=O)NCC(=O)O)c3ccccc3)cc2S(=O)(=O)C1		refers to: HDL cholesterol	human, serum	15 mg once daily, day 2		serum HDL-C	45.7 mg/dL
CCCNCCc1c[nH]c2cccc(O)c12.CCCNCCc1c[nH]c2cccc(O)c12.O=C(O)/C=C/C(=O)O			C57BL/6J mice	subcutaneous, 30 mg/kg, 30 min		distance travelled	1340 ± 96 cm
CCCCCCCCCCCCCCCCCC[N+](C)(C)CCCCCCCCCC[N+](C)(C)CCCCCCCCCCCCCCCCCC.[Br-].[Br-]	influenza A virus A/PR/8/34 (H1N1)			concentration not given, pre-treatment		protection	73.9 ± 3.2%
Cn1c(=O)ccc2ccc(F)c(CCNC[C@H]3CN(c4cnc5c(n4)NC(=O)CO5)C(=O)O3)c21	Enterococcus faecalis					MIC50	0.03 µg/mL (≈ 0.064 µM)
CC(C)(C)NCCc1c[nH]c2cccc(O)c12.CC(C)(C)NCCc1c[nH]c2cccc(O)c12.O=C(O)/C=C/C(=O)O			C57BL/6J mice	subcutaneous, 0.1 mg/kg, 30 min		distance travelled	2530 ± 261 cm
CC(C)n1ncc2c(C(=O)NCC3(C)CNC3)cc(C3CC3)nc21	enterovirus D68		recombinant US/MO/14-18947 wild type	50000 nM		plaque reduction	100%
CCCCCCCCCCCCCCCCCC[N+](C)(C)Cc1ccc(C[N+](C)(C)CCCCCCCCCCCCCCCCCC)cc1.[Br-].[Br-]	influenza A virus A/PR/8/34 (H1N1)			concentration not given, pre-treatment		protection	74.4 ± 2.1%
C=CCNCCc1c[nH]c2cccc(O)c12.C=CCNCCc1c[nH]c2cccc(O)c12.O=C(O)/C=C/C(=O)O			C57BL/6J mice	subcutaneous, 3 mg/kg, 30 min		distance travelled	2870 ± 235 cm
C[C@H]1O[C@@H](O[C@H]2CC[C@@]3(C)[C@@H](CC[C@]4(C)[C@@H]3C=C[C@]35OC[C@@]6(CCC(C)(C)C[C@H]63)[C@@H](O)C[C@]54C)[C@]2(C)CO)[C@H](O)[C@@H](O[C@@H]2O[C@H](CO)[C@@H](O)[C@H](O)[C@H]2O)[C@H]1O			mouse, pair-fed, hepatic SIRT1 knockdown, plasma	dose not given, high dose		AST/ALT ratio	1.72 and 2.07 and 2.12 and 1.36 and 2.82 and 2.14
CCNCCc1c[nH]c2cccc(O)c12.CCNCCc1c[nH]c2cccc(O)c12.O=C(O)CCC(=O)O			C57BL/6J mice	subcutaneous, 30 mg/kg		head twitch response	17.7 ± 4.3 count/30 min
CCCCCCCCCCCC[N+](C)(C)CCOCC[N+](C)(C)CCCCCCCCCCCC.[Br-].[Br-]	influenza A virus A/PR/8/34 (H1N1)			concentration not given, pre-treatment		protection	83 ± 8.5%

Some of these lines once more:
Compound	tested on	assay	system	setting	scale	quantity	value
CS(=O)(=O)Nc1ncn(-c2cc(F)c(COc3ccc(OS(=O)(=O)F)cc3)c(F)c2)n1	Mycobacterium tuberculosis		NIH_G13, drug-resistant, lineage 4			MIC	0.03 µM (≈ 0.0144 µg/mL)
CCCCNCCc1c[nH]c2cccc(O)c12.O=C(O)/C=C/C(=O)O			C57BL/6J mice	subcutaneous, 3 mg/kg, 30 min		distance travelled	2720 ± 314 cm
